Measured values gathered from unrelated publications.
Every numbered part comes from another study and shows a few of its results, in no order.

Set 1
Target: Ras GTPase-activating protein-binding protein 1, full length (G3BP1, Homo sapiens, UniProt Q13283)
Sequence of UniProt Q13283 (whole entry, looked up): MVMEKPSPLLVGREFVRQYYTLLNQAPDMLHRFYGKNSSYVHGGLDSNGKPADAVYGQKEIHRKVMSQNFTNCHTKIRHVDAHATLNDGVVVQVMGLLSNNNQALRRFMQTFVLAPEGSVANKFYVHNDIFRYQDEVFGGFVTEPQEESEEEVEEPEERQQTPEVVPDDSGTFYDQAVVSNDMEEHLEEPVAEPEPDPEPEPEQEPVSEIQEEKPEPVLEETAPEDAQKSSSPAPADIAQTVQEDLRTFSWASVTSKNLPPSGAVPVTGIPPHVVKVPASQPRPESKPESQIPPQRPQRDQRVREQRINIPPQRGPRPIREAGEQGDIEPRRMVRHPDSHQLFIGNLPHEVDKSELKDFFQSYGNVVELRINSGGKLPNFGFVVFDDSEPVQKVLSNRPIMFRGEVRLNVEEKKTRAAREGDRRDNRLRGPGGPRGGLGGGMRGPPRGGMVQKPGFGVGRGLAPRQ
Technique: RNA Bind-n-Seq
Form: RNA
Matrix: in vitro
Tested at: 200 nM
Notes: whole 134-nt RNA, ends assumed
Added: 150 mM LiCl
Relative to: input library
Direction: higher = stronger binding
Measurement: log2 enrichment
Library: 7-deaza-guanosine replaces G
Shared flanks, not repeated: GGGAGUUCUACAGUCCGACGAUC … UGGAAUUCUCGGGUGUCAAGG
UGGCCCUGGUGGCAUGCGGGGAGGAAGAGGUGGCCUCAUGGAUCGUGGUGGUCCCGGUGGAAUGUUCACAGGUGGCCGUGGUGGAGACAG: -0.0687
AGUCCUGUGCUACACAUCGUAUGUACCGAAUCAAAGUGUGUGUGUGUGUGUGUGUAAAAAAGUAUUAUGUUACGCCGUUCGGAUCUGCAC: -0.847
ACCAUGCAGGUGGGCAUCUUUGGGAAGUGGGGGAAGGGGGGGAUAGGGAGGGGGGUAACACUUUGGGAACAGGUGGUCCCAGGUCGUUUC: 0.231
UAAUUGAAGAACCCAUUUUGCUCAUUUUAGGCAUCGUUAAAGAAUCUGGAGUGAAGCACAAGGGAUUGAUUGAAAUACCCAAUCUUUCUG: -0.908
UUGCUUCAAGAAGAUCCCUAAGCUGUAGAACAUUUUAACGUUGAUGCCACAACGCAGAUUGAUGCCUUGUAGAUGGAGCUUGCAGAUGGA: 1.27
UUCCUCAGGGUAGAACUGGAUGACUCAGACGUGUUCCAUGGUGAACCUGAACCUGAGGAGCUGCCUGGAGGUAAGGGCCCUGAACUGUCC: -2.1
GUCCUGUGCUACACAUCGUAUGUACCGAAUCGGGAAAAAAGGAAAAAAGGAAAAAAGGGAAAGUAUUAUGUUACGCCGUUCGGAUCUGCA: -0.237
UUUUCUGUUUGAAACAGUUUUAUACUUUCUGAUAUAGUACUUGAAAUUCUUACCAGAAAAUUACUUUGGAGUUUUGAAGCCUUUAUUAAU: 0.0118
GCAGGAAGUAAAAACAAAUGGAAAUGCUUCGGAUCGUGGCAGGGGUGGGGGUUGCUAAGGAAAGGGUGGGAUGGGAGUGGGUAAAGAGUU: 0.243
GUCCUGUGCUACACAUCGUAUGUACCGAAUCGGGCCCCCGGGGCCCCCGGGCCCCCGGAAAGUAUUAUGUUACGCCGUUCGGAUCUGCAC: -0.272
UCAAGUCCUGUGCUACACAUCGUAUGUACCGAAUCGGUGGUUUGGAAAAAAAGGAAAGUAUUAUGUUACGCCGUUCGGAUCUGCACUUCC: -0.35

Set 2
Target: RNA binding protein fox-1 homolog 2, RRM domain, GST-SBP tag (RBFOX2, Homo sapiens, UniProt O43251-10, residues 100-194)
Technique: RNA Bind-n-Seq
Form: RNA
Matrix: in vitro
Tested at: 365 nM
Notes: natural RNA segment, single round, ends assumed
Relative to: no-protein control
Direction: higher = stronger binding
Measurement: RBNS enrichment (R)
Shared flanks, not repeated: GGGAGUUCUACAGUCCGACGAUC … UGGAAUUCUCGGGUGCCAA
Construct (chain): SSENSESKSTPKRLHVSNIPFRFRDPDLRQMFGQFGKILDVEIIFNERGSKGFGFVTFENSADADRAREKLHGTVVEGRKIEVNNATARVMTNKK
GCUAGGGGCUUUGUUCCUGCUUUUUGUUUUGUUUGGUUUUACUAUCAGAUGGAUGGAUUUGUGUUUGUCUCAGAGCAGCAUAUACAUGCAGUCAGUAAGCAUGUUUGAAA: 0.83
GUUCUGGACUCUGAUGUGUGUGGAGGGAUGGGGAAUAGAACAUUGACUGUGUUGAUUACCUUCACUAUUCGGCCAGCCUGACCUUUUAAUAACUUUGUAAAAAGCAUGUA: 1.69
CAGAAAGGUUCCAUUUAUGUUUUACUCCUGAAAGUGAAACCCUCUUAGGCAACUUGUUUCAUAUUCUGGGCAUUUUAGUAGCUACAGUAUUUUGCAUUUAAAAUGUAAUU: 0.87
UUCCCCCACCCCCCCAGUUUUUUCAGAUUUCUUUACCUUUUUUUAAUUAAACUGUUUUGGAAAAAUGCGUGGUCGUCCUCGAAUUUGCAGUUUUCCAUUUGGUCGGGAUG: 0.794
GUCCAGACCUGGUCGGGGCCCACUGGAAGCAUCCAGAACAGCACCACCAUCUAGCGGCCGCUCGAGGGAAGCACCCGCCGGUUGGCCGAAGUCCACGAAGCCGCCCUCUG: 0.387
GGGAAAUAUCCUAUGUUUUCUUGCUCAAACACCUUUCUCUCUGAAAGCAGAAAAAGGCACUGAUAUAAAGGGAAGAGAAGGAGGCUCACCGGAGGGAAGAGAACAUAGUG: 0.373
CCUGGCUGAGUCACUCUCCACGUCUAUCCUGAAAUCACUCAAUGCUUCUGCCGGGUUUUUGUACAUGUAAACACUGUCAAGCUGUGAAAGAAAGUGGCUGGAGGUGUGUU: 1.01
AAUGACACUCAGGUUCACUGUGGAAAACUGUUCUUGGGACUGUCUCAACUGUGCAAAAAACAAAAGAUGGAGUGUUUACAAGUAGACAUUCGUCAUCAGUUGUUCUUGAA: 0.185
CUCAAUGCCUGGGUUACAUAGGAAAUGCACCCUGAGGUUUUAAUAAAGCCCCUAUGGCUAUAACUUUAAAUAAACUAAACCAAAAAUGUUAUUGAUGUUUUAUAUAGAGA: 1.23
AAAAUUGGAACUCUACUCAACCCAUUGUUGUCAAGGAAGAAGAAAUCUUUCUCCCUCAACUGAAGGGGUGCACCCACCUGUUUUCUGAAACACACGAGCAAACCCAGAGG: 0.371
GGGUGUCCAGACUCAGAAGGCUUGAUCUGGGUUCCCUGUAAAGAGAGAGUGAAUUUCAGUAUACAGACAGCCUGCUCUACCCACCCCUUCCUUACCACGGCCCACGUAAA: 0.772
GGGAGAUACAAUUCAAGUUGAGAUUUGUGGGGGGACACAACCAAACCAUAUCAGCAUCCUUUCAAGAAUAUUAGAUAAUUGGAGCUGAGUACUCAGGAACUUGACUGUAG: 0.554

Set 3
Target: Interferon regulatory factor 7, full length, phosphomimetic (IRF7, Homo sapiens, UniProt Q92985, residues 1-503, S101K/S471D/S472D/S475D/S476D/S477D/S483D/S484D/S487D)
Technique: protein-binding microarray
Form: double-stranded DNA, one strand shown
Matrix: in vitro
Tested at: 250 nM
Notes: 60-bp whole probe
Added: salmon DNA 0.4 mg/ml
Relative to: random background probes
Direction: higher = stronger binding
Measurement: log fluorescence
Shared flanks, not repeated: GCCTAGCAC … GTCTTGATTCGCTTGACGCTGCTG
Construct (chain): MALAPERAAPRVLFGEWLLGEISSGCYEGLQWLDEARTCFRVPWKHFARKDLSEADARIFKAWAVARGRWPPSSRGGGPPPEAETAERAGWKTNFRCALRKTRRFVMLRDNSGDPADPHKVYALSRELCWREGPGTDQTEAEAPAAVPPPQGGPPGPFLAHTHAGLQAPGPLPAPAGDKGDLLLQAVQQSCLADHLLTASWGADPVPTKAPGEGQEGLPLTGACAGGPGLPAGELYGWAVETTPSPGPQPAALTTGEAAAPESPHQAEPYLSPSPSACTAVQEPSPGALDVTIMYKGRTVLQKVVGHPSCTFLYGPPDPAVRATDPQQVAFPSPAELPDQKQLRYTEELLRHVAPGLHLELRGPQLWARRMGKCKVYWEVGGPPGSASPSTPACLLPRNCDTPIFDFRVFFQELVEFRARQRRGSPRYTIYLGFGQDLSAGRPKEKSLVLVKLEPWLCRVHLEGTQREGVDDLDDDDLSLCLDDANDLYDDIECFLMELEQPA
TGAGGTATCGGGTTTCGGTTAGTGCTA: 6.87 z-score
TCATATTAAAATTTAATACTGTGCTAG: 0.645 z-score
GCTTTTTTTTTTTTTTTTTTGTGCTAG: 1.26 z-score
GACGGTATCGGGTTTCGGGGCGTGCTA: 2.09 z-score
CTTCCTCTTTCACTGGTCCTGTGCTAG: 2.39 z-score
TCATTTTTTTGTATTTTACTGTGCTAG: 0.746 z-score
TTTGGTCTCCTTATCCTTTAGTGCTAG: 0.677 z-score
TTAGGTCGCGGTCTCGGTTAGTGCTAG: 1.56 z-score
GACGGACTGGGTCTCGGTACGTGCTAG: -0.142 z-score
GACGGTATCGGGTTTCGGAACGTGCTA: 5.15 z-score
TCTTCTGGTGTGTCTGAAGAGTGCTAG: 0.0553 z-score
TTAGGACTGGGGTATAGGTTAGTGCTA: -0.175 z-score
GACGGTATCGGACAGGGGACGTGCTAG: -0.244 z-score
TTAGGTATCAGGACTGGGTTAGTGCTA: -0.204 z-score
GACGATTTCAGTATCGATACGTGCTAG: 1.07 z-score
GACGGACTGGGGTACCGGGACGTGCTA: -0.782 z-score
ATAGGACTGGACTATCGGTTAGTGCTA: -0.249 z-score
TTAGGTTTCCGTTTCGGTTAGTGCTAG: 10 z-score
TTAGATTTCGTGACTGGATTAGTGCTA: 0.207 z-score
AGAAGATAAGCTGCAAGAAAGTGCTAG: -0.882 z-score
GGGTCTTCAGGTTCTCCCCCAGTGCTA: 0.123 z-score
GACGGTATCGGGTAACGGGACGTGCTA: 0.181 z-score
CACGGTTTCGGGACTGGGGACGTGCTA: 4.26 z-score

Set 4
Target: RING finger protein unkempt homolog, zinc fingers 1-6, GST-SBP tag (UNK, Homo sapiens, UniProt Q9C0B0, residues 30-357)
Sequence of UniProt Q9C0B0 (30-357, looked up): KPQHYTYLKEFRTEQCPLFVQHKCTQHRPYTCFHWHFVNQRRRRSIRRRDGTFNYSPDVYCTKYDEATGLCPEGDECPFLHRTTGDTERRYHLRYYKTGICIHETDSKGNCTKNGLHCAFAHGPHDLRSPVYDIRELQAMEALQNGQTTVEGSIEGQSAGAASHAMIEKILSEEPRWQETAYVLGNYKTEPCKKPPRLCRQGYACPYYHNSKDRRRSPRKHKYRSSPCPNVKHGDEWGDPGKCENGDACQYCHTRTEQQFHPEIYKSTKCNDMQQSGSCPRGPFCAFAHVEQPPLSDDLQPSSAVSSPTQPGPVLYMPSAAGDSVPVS
Technique: RNA Bind-n-Seq
Form: RNA
Matrix: in vitro
Tested at: not given
Notes: RNA with constant flanks, human and mouse sites, ends assumed
Relative to: input RNA pool
Direction: higher = stronger binding
Measurement: bound/input enrichment
Shared flanks, not repeated: GGGAGUUCUACAGUCCGACGAUC … CAACAGAGGAUUGAGCAUCA
AAAAGUGCUGAAGAUGCUAAAACUAUUUAUGAAUUCACAGACACAGUGAUAAGGAUCAGAAACCGGCACAAUGAUGUCAUUCCCACCAUGGCCCAGGGUGUGACUGAAUACAAGGAGAGC: 0.174 ratio
ACAGGAACAGGGCAGACGUUAGCGUGAGUGAUCACUCUCAAUCCCGGGGACCUGGUGGCCUUAGUCUUUCAGGUGGAACGGUGUGCGACAUGGGAAAGAAAACCAAGCGGACAGCUGACA: 0.356 ratio
GGUUUUCAUGGAGACUGUCUUACGCUGACAAAGAUUAUUGAAGCAAGACUAAAGAUGUAUAAGCAUUCCAAUAAUAAGGCCAUGACUACGGGGGCAAUUGCUGCAAUGCUGUCUACAAUC: 0.245 ratio
GACCGGAACCAUCUUGAGGUGCUGCCUCCUGAAAUCGGAGGCUGUGUGGCCCUUAGUGUCCUCUCUUUGAGAGACAAUCGCCUGGCUGUCCUCCCUCCUGAGCUUGCCCAUACCGCUGAG: 0.0971 ratio
AUGGUUCACUUGACUCUUCUCUGGUUUCUCCCUGCUGCCCUGGUUCUAGGUGGGCUCAGCCUGAGGUAUUGUAGUUGUCAUGUAGUCACUAUUGUGACUACCUGUUGUGUGCUAUUGCCC: 0.461 ratio
GCAGGAGCAUCAGUAGACCUAACAAUUUUCUCCCUUCAUUUAGCUGGAGUGUCAUCUAUUUUAGGUGCAAUUAAUUUUAUUACCACUAUUAUCAACAUGAAACCCCCAGCCAUAACACAG: 0.985 ratio
ACAUGUAAUUCACGUGGUAAAAUAAAAUAUAGCUAUUGUAAGUGUGCUUUUCAGUAGCAUUAUAUAUGUGUUAUACAGUGAUUAUUGCUGUCCCUCUCCAAAACUCUAUCUUUGAAAACU: 0.0877 ratio
GAAAUGGCAACCACAGAGGAUGCUCAGGCCGCAGUGGAUUAUUACACAACCACACCAGCGUUAGUAUUUGGCAAGCCAGUGAGAGUUCAUUUAUCCCAGAAGUAUAAAAGAAUAAAGAAA: 0.676 ratio
UAUUUAAUCAAAUAAGAUACAUGAUAUUGAAAGAAUAAAGCAGCAUUUUUAGUUUUUACUACCUUAGGCUUUAUUGCUUUGAAAACAACAUUGGCCUUUUGUAUCUCACAAUUCUGGUCU: 1.18 ratio
CACUUUUCUUGGGUUUUCCUGGAUGACAUCUUUGAGGUGAAACUUCAUGAUAACUACGAACUGAUGAAGGAUGAAAGUAAGGAGAGUGCCAAAAGGCUGCAGUUGCUAGAUGCCAAAGUG: 0.204 ratio
GAAAGCACUACCCUAAGCCAUGAGGAUCUCCAUGCUUUGCUAACCAAGAUAACUGUUUUCUCUUUGUAGAAGUUUUGUUUUUGAAAUGUGUAUUUCUAAUUAUAUAAAAUAUUAAGAAUC: 2.18 ratio

A few entries again (set 3):
TGAGGTATCGGGTTTCGGTTAGTGCTA: 6.87 z-score
TCATATTAAAATTTAATACTGTGCTAG: 0.645 z-score
GCTTTTTTTTTTTTTTTTTTGTGCTAG: 1.26 z-score
GACGGTATCGGGTTTCGGGGCGTGCTA: 2.09 z-score
CTTCCTCTTTCACTGGTCCTGTGCTAG: 2.39 z-score
TCATTTTTTTGTATTTTACTGTGCTAG: 0.746 z-score
TTTGGTCTCCTTATCCTTTAGTGCTAG: 0.677 z-score
